# Published values pooled from the literature.
# Numbered parts are unrelated; each lists some results of a single study. Changes are numbered by the printed parent chain.
# Chain of UniProt Q5BJF2 (whole entry, looked up): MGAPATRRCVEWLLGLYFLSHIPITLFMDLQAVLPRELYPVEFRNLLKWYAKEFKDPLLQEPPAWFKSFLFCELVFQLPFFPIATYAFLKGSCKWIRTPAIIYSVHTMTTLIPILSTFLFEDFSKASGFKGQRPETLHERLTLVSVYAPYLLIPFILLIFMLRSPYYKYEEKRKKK

# Block 1
# Target: RING finger protein unkempt homolog, zinc fingers 1-6, GST-SBP tag (UNK, Homo sapiens, UniProt Q9C0B0, residues 30-357)
# Chain of UniProt Q9C0B0 (30-357, looked up): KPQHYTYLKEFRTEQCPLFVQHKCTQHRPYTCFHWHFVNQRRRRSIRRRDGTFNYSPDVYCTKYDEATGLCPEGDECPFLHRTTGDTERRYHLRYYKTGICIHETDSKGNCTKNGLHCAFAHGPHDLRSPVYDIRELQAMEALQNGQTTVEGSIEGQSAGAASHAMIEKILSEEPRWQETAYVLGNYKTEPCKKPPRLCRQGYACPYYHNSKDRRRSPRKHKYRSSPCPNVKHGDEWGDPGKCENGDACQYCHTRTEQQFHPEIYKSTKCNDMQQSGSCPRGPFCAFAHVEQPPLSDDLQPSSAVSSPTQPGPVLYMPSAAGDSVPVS
# Method: RNA Bind-n-Seq
# Molecule type: RNA
# Matrix: in vitro
# Tested at: not given
# Setting: RNA with constant flanks, human and mouse sites, ends assumed
# Reference: input RNA pool
# Reading: higher = stronger binding
# All sequences stand within: GGGAGUUCUACAGUCCGACGAUC … CAACAGAGGAUUGAGCAUCA
Sequence,bound/input enrichment
AUAGAAGCAGCGCCUGAGUCCCAGAUGAUGCCCGCCAGCGUCCUAACGGGCAAUGUCAUCAUAGAGACAAAGUUCUUUGACGAUGAUCUUCUUGUCAGCACAUCCAAAGUGAGGCUUUUC,0.11 ratio
GCUGCGCCGACGAGUCUCCCCAAGUCCUCCCGGAGCCUGUCUGGCUCACUCUGUGCCCUGUUUUCUGAUGCAGAAUCGAGAUCCGAGAUGAAGACUGAACUUUCUCCUCGGCCCGGGGCA,0.164 ratio
GACAGAGGAAGAAAAACAGCAGAUCCUUCAUUCAGAGGAAUUUCUCAUCUUUUUUGACCGGACAAUACGGGUAAUUGAAAGAGCCCUGGCUGAAGAUUCCGACAUCUUUUUUGACUACAG,0.211 ratio
ACAAUUCUUCAAGAAAAACUUCAAGAAAUCAGAAAACAUUAUCUGUCAUUAAAAUCUGAAGUAGCUUCCAUUGAUCGGAGGAGAAAGCGUUUAAAGAAGAAAGAGAGAGAAAGUGCUGCU,1.18 ratio
UUGCUAUGUUUUUAUCAGUUCGCAGGAACUUUAUAUUAAUGGAUAUUGAGCCUUUGCUCUGGGUGUGUUUGUAUAUAGAGAGAAACAUAUAUAGUGUACAUACUAUCUAAUGUAUAUUAA,0.59 ratio
CCAGUGGAAGAAGGUGACCAAGGCACAGAGGUCAUCUGGCUCACGCAGCACGUGGAGCUGAGCUUUGGCCCUCUUCUUCCUUAAAACACAGUGACCCCACCCACAGCUGUGUCAACACAA,0.183 ratio
UUGAAAGCUGAGAAAGACAAUGCUGAGAUAAGAGUCCACACAGUUGAGGAUUAUCAGGCAAUUGUUGAUGCUGAGUGGAACAUUCUCUAUGACAAGUUAGAGAAGAUCCAUCAUUCUGGA,0.109 ratio
CUUACCAAGCACUUGCUGAAGACAGUGUGUACCGAUAUCACUAACCUCAUGUUCAACUUCCUAGCCUCAGAUUUCCUCAUGGCAGUGGAGGAGCCUGCAGCCAUUACAAGUGAUAUAAGA,0.312 ratio

# Block 2
# Target: Phosphate system positive regulatory protein PHO4, full length, GST-tagged (PHO4, Saccharomyces cerevisiae, UniProt P07270, residues 1-312)
# Method: competition protein-binding microarray
# Molecule type: double-stranded DNA, one strand shown
# Matrix: in vitro
# Tested at: 2 µM
# Setting: whole 60-bp probe, lowest competitor level
# With: Cbf1 competitor, 0.05 µM
# Reading: higher = stronger binding
# All sequences stand within: … GTCTTGATTCGCTTGACGCTGCTG
# Target sequence (chain): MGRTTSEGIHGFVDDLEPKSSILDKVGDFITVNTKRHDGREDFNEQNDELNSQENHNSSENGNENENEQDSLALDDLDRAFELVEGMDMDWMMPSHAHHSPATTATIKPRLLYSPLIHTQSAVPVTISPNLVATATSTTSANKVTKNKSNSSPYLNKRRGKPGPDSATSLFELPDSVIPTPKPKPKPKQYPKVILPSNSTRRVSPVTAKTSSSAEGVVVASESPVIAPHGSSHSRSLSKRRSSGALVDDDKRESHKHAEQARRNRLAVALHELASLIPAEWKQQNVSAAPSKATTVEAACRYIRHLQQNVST
Sequence,fluorescence intensity
TCGACGGCGAAGAAGCACATGCCTTCACCGTCCGCA,9510 a.u.
ATGGCCGCTGGTCCTCACGTGTATATATGGAGGGAG,16700 a.u.
TAACCATTTCTTCCTGTCGTGGGTAGTTCATACCAT,7170 a.u.
TTGTCTCATATTACCCACGTGGAAGGCGCCCAACAT,18500 a.u.
CTTTCCCGATCTTGGAAGGTGGGTGTAGCACATTTG,4250 a.u.
AAGGTTCAAAACAAGCACATGTGTGTTTTGTGACGG,12600 a.u.
GCTGATATCTACGTACATGTGTATACTTGCCAATAT,7470 a.u.
TATTGACAGCATTCGATCGTGCAATGGGAAATAACG,6260 a.u.

# Block 3
# Target: CRIPT, C-terminal peptide
# Method: DHFR complementation, deep sequencing
# Matrix: yeast
# Setting: single substitutions, model-inferred values
# Reference: wild type
# Reading: higher = weaker binding
# Starting sequence: ERBIN, PDZ domain 1 (human); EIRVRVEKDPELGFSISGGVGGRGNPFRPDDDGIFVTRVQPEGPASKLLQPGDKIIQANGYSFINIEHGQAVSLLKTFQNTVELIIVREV; partner TKNYKQTSV
Substitution,binding free energy change [kcal/mol]
N80T,0.0956
E1P,0.0348
L75N,0.539
Q57W,0.148
I86E,0.766
H68C,1.55
V72E,1.49
R3Y,0.0556

# Mixed results
Compound,target,test,setting,endpoint,value
Cc1c(NC(=O)c2cc(C(N)=O)nc3cc(F)ccc23)c(C(F)(F)F)nn1Cc1ccc(C(C)(C)C)cc1,"Sigma intracellular receptor 2 (TMEM97, Homo sapiens, UniProt Q5BJF2)","binding, radioligand binding",10 µM,inhibition,40.7%
